Measured values from different studies.
Parts stem from different laboratories: compare values within a part only. Changes are numbered by the printed parent chain.

Study 1
Target: ABI1, truncated, D143A, DHFR fusion (Arabidopsis thaliana)
Technique: DHFR PCA, deep sequencing
Matrix: yeast
Notes: methotrexate growth selection, single substitutions
With: (+)-ABA 710 µM
Baseline: wild-type fitted maximum
Direction: higher = stronger binding
Starting sequence: PYL1, truncated, DHFR fusion (Arabidopsis thaliana); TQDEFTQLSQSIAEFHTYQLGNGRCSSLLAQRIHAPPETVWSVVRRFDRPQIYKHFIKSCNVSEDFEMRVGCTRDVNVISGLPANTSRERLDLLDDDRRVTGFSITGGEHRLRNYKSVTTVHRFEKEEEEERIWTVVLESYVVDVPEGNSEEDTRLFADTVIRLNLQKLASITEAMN
Change	relative binding score
F5W	109%
L166D	7.54%
F47N	-4.76%
S63E	105%
V78A	82.1%
V118Y	83.4%
N61Q	103%

Study 2
Target: RNA binding protein fox-1 homolog 2, RRM domain, GST-SBP tag (RBFOX2, Homo sapiens, UniProt O43251-10, residues 100-194)
Technique: RNA Bind-n-Seq
Molecule type: RNA
Matrix: in vitro
Tested at: 365 nM
Notes: natural RNA segment, single round, ends assumed
Baseline: no-protein control
Direction: higher = stronger binding
Construct (chain): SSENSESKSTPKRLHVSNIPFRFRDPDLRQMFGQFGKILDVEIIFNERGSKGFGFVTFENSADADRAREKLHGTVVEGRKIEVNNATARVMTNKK
Oligonucleotide	RBNS enrichment (R)
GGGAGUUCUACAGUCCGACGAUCCAUAUGUCAUAUUUUAAUUAUAGAAAUCAGUAGCAAAAAGAAUCUUGGGGAUUUUCCAUCUGACUUCCCUGGCCAUCUUAUCCCAUCCUUGCACUACCAGAAGAUUCAUAUGGAAUUCUCGGGUGCCAA	0.534
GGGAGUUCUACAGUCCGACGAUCGAAAAUAACCCCUGAUUGGUAGGAUCAUAGUUCUAAAUGGAAAUGUUUGUAAUUCUUUGAUGUGCUACAAACCUGAAACUGGUAAGACAAGCACAAAGCAACGUGCAAUAUGGAAUUCUCGGGUGCCAA	0.314
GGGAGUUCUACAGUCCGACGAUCUUAAAAACAGCAACCCUGCCUACCGUUUUGAUGACCUUUUUCCAUAUUAAACAAGUUGAGAACAAAAGAGUGUCACCGCUUGCUUCUUACCUCUGGUUCUGAAAUCAGAUUGGAAUUCUCGGGUGCCAA	0.476
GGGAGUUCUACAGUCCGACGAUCCCACCAAAUUCUGAAUUUGUAGACAUACUUGUACGCUCACUUGCCCCAGAUGCCUCCUCUGUCCUCAUUCUUCUCUCCCACACAAGCAGUCUUUUUCUACAGCCAGUAAGUGGAAUUCUCGGGUGCCAA	1.42
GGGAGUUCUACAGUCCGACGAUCUGGGGACACAGAUUUUCAUAGUUUCCAUUUUUGGGGGGCUUAAGGAUUUUUUUUUUUUCUGUUUGAAACAGUUUUAUACUUUCUGAUAUAGUACUUGAAAUUCUUACCAGUGGAAUUCUCGGGUGCCAA	0.636
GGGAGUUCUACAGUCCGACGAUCACACGAGAUAUUCUGCUUUCAGACUUAUUUUAUUGCAACCAGAGAAUAUGAGAAUUUGAUAUGUAAUUAUUUCACAAAUAUGAUCUUUUCAAUAACAAAAUAUCGUAAGUUGGAAUUCUCGGGUGCCAA	0.532
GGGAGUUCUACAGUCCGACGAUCCUCCUGUUACAGCUUCCACACUCAGCCGGCUUGCUUCAGUAUUUUUGCUUCCUGUAUAUUCUUAUACAUGUUUUUGACUCCAGAAAAAUGACACCUUUAGACUGUUUCAGUGGAAUUCUCGGGUGCCAA	1.72

Study 3
Target: Ras GTPase-activating protein-binding protein 1, full length (G3BP1, Homo sapiens, UniProt Q13283)
UniProt Q13283, sequence (whole entry, looked up): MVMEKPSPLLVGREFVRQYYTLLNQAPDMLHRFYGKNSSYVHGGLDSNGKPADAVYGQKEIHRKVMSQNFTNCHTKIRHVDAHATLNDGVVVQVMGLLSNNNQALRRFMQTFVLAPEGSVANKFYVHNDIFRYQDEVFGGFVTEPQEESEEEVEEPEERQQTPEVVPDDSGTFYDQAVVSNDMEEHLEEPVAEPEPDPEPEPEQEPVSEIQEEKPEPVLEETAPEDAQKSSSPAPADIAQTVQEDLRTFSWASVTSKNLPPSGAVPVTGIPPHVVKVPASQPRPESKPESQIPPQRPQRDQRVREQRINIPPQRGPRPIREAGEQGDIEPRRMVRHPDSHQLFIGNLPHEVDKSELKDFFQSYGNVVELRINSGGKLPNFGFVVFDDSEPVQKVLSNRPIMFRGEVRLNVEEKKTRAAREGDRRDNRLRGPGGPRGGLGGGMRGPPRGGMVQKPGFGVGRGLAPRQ
Technique: RNA Bind-n-Seq
Molecule type: RNA
Matrix: in vitro
Tested at: 200 nM
Notes: whole 134-nt RNA, ends assumed
With: 150 mM KCl
Baseline: input library
Direction: higher = stronger binding
Oligonucleotide	log2 enrichment
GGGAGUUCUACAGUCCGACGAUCAGUCCUGUGCUACACAUCGUAUGUACCGAAUCGGGUUUUUGGGAAAAAAAGGGUGGGAAAGUAUUAUGUUACGCCGUUCGGAUCUGCACUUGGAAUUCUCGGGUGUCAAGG	-0.114
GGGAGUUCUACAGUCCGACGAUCCAAGUCCUGUGCUACACAUCGUAUGUACCGAAUCAAACCCAAACCCAAACCCAAAAAAGUAUUAUGUUACGCCGUUCGGAUCUGCACUUCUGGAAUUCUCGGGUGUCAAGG	-0.614
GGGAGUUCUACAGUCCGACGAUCUCUAUGUAGCAUCCAGGUACUACUUCCUUUGGAAUGUCAGUAUUUAAUCUGAGCAAUGCGAUUGUGGGCAGUGGAAUCCUUGGGCUUUCUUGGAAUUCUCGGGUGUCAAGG	-0.516
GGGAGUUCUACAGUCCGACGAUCUGUGCUACACAUCGUAUGUACCGAAUCGGGGUUUUUGGGGUUUUUUUGGGGUUUUUUUGGGGAAAGUAUUAUGUUACGCCGUUCGGAUCUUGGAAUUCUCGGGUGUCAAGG	-0.427
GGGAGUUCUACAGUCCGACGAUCCACAGACAACACGCACCCACACAGACACCGAGGGAAGGGGUUGGGAUGGGGACAGGGUGCACAGCAGGGCGGGGUAGGACCCCAGCCCCUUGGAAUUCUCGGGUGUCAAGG	1.73
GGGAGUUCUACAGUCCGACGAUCAAGUCCUGUGCUACACAUCGUAUGUACCGAAUCGGGGAAAGGGGAAAGGGGAAAGGGAAAGUAUUAUGUUACGCCGUUCGGAUCUGCACUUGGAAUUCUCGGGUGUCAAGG	0.0795
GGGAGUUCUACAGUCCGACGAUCGUCCUGUGCUACACAUCGUAUGUACCGAAUCGGUUUUUGGGGUUUUUGGGGUUUUUGGAAAGUAUUAUGUUACGCCGUUCGGAUCUGCACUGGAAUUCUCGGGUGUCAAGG	-0.469

Mixed results
Substance	target	assay	system	conditions	scale	quantity	value
PhoQ, residues 284 288 289 292 302 303 NLMGRA	PhoP, residues 12 14 15 18 19 AWHSL (Escherichia coli, UniProt P23836)	Sort-seq, refers to: YFP reporter	E. coli	PhoQ-PhoP variant library, with: 10 µM Mg2+	baseline: high Mg2+ state, higher = stronger signaling	fold induction	6
